# Results of several laboratories.
# Compare with care: the assays were run in different laboratories. “And” joins repeats or separate records; there may be more than shown. ± gives the spread as reported.
# Technique: steady-state kinetics
# B1: SCO6712 V290N (Streptomyces coelicolor, UniProt Q9XAL8); chain AKGITARTAPAGGEVRHLKMYAEKLADGQMGYGFEKGKASVPGPLIEVNEGDTLHIEFTNTMDVRASLHVHGLDYEISSDGTAMNKSDVEPGGTRTYTWRTHKPGRRDDGTWRPGSAGYWHYHDHVVGTEHGTGGIRNGLYGPVIVRRKGDVLPDATHTIVFNDMTINNRKPHTGPDFEATVGDRVEIVMITHGEYYHTFHMHGHRWADNRTGILTGPDDPSRVIDNKITGPADSFGFQIIAGEGVGAGAWMYHCHNQSHSDMGMVGLFLVKKPDGTIPGYEPHEHGGATAKSGESGEPTGGAAAHEHEH
# B2: enzyme H459A (Methanosarcina mazei, UniProt Q8PVB1); chain MSEQRSVPLREHLLALKPCRHGGLIQETSETYGIPENEILDFSANFNPLGSPFDYPENGLNFEDIIKKSCGKLLEYPDNRYVEFREAAARFVGLGVTPQSIVPGNGSTEIVRLVVESVIEKGDKVLLPWPTFGEYEMQCRITGAEPVCPSQEEVNTLPDEVLEEAKILFICNPNNPTGKLRTREELKVLAERCREHKTLLYVDEAFIELSDPSQSVADLPAENNYVFVMRSLTKDFAIPGIRMGFGIAPPAMADILNTARLSWNLGAIANNTGIALLNIEGGIDSPYLKKAREMILKEGETLKAKIDRIRGFEAGEVNVNFILVDVSKFMLNSSELTARLAARGVLVRDCVSFHGLGKNYIRVAVRTEKENDRLIAAIGDVITEWGREQAKNELQHVIEKASEEGIGGRKTCEYYPCHFEGQNCTFCFCPFYPCENEKTGGKWIQSSRGGRVWSCVDCALVHKKEIAQKILDCLMHEGDTDELVKVAWKEVMEPIL
# B3: enzyme (Haliscomenobacter hydrossis, UniProt F4KU78); chain MKQKPAFIPYAGAQFEPEEMLSKSAEYYQFMDHRRTVREFSNRAIPLEVIENIVMTASTAPSGAHKQPWTFVVVSDPQIKAKIRQAAEKEEFESYNGRMSNEWLEDLQPFGTDWHKPFLEIAPYLIVVFRKAYDVLPDGTQRKNYYVQESVGIACGFLLAAIHQAGLVALTHTPSPMNFLQKILQRPENERPFLLVPVGYPAEGAMVPDLQRKDKAAVMVVY
# B4: acsA (Pseudomonas chlororaphis, UniProt Q5CD72); chain MRDYEHVVESFDYLQSATQDLHGELTALNACVECCDRHAHGEAVALYCEAQDGHAERYRFRDLQRQAARFGNFLREQGVKPGDRVAGLMPRTVELLIAILGTWRIGAVYQPLFTAFGPKAIEQRLNCSNARWIVTDPHNRPKLDDVTDCPSIVVTGGAPQNPADHHFWSALNRQADDCAPVLLDASAPFLLMCTSGTTGPAKPLEVPLSAILAFKGYMRDAIDLRADDRFWNLADPGWAYGLYYAVTGPLACGYATLFYDGPFTVESTRHIIAKYAINNLAGSPTAYRFLIAAGAEFADAVRGRLRAVSSAGEPLNPQVVRWFAEQLGVVIHDHYGQTEIGMVLCNHHGLRHPVREGSAGYAVPGYRIVVLDKAHRELPAGQPGVLAVDRERSPLCWFDGYLGMPTQAFAGRYYLSGDIVELNDDGSISFVGRNDDLITTSGYRVGPFDVESALIEHPAVVEAAVIGKPDPQRTELIKAFVVLNTPYLPSPELAEELRLHVRQRLAAHAYPREMEFVDHLPKTPSGKLQRFILRNQEIAKQQALG
# B5: enzyme S252E (Schizosaccharomyces pombe, UniProt P78804); chain MSTPYEPEFQQAYKEIVGSIESSKLFEVHPELKRVLPIISIPERVLEFRVTWEDDKGNCRVNTGYRVQFNSALGPYKGGLRFHPSVNLSILKFLGFEQIFKNALTGLPMGGGKGGSDFDPKGKSDNEIRRFSQAFMRQLFRYIGPQTDVPAGDIGVTGFVVMHMFGEYKRLRNEYSGVVTGKHMLTGGSNIRPEATGYGVVYYVKHMIEHRTKGAETLKGKRVAISGSGNVAQYAALKCIQEGAIVKSISDEKGVLIAKTAEGLVPEEIHEIMALKEKRASIADSASLCKKHHYIAGARPWTNVGEIDIALPCATQNEVSGEEAAALIKQGCRYVAEGSNMGSSAEAVEVFEKSRASGEGCWLAPGKAANAGGVAVSGLEMAQNAQFSTWTHAEVDAKLAGIMQNIFEQSTDVASKYCDSGSNNIPSLVDGANIAGFLKVATAMQAVGDWW
# B6: SABP2 (Nicotiana tabacum, UniProt Q6RYA0); chain MKEGKHFVLVHGACHGGWSWYKLKPLLEAAGHKVTALDLAASGTDLRKIEELRTLYDYTLPLMELMESLSADEKVILVGHSLGGMNLGLAMEKYPQKIYAAVFLAAFMPDSVHNSSFVLEQYNERTPAENWLDTQFLPYGSPEEPLTSMFFGPKFLAHKLYQLCSPEDLALASSLVRPSSLFMEDLSKAKYFTDERFGSVKRVYIVCTEDKGIPEEFQRWQIDNIGVTEAIEIKGADHMAMLCEPQKLCASLLEIAHKYN
# B7: enzyme (Plasmodium falciparum, UniProt C0H484); chain MVREAHELLDGSRPIPIDKITYELSQNIILAFDNHENINNKDIQIEIEGRVGLVIDKNKNRIKLPINTDAIIENNYSDFQAGIDRESFEYLLDYFHNMTLKKRLSIRNNDNNNNNMDNNNNNMDNNNNIHIHNSGNNTNQTHSYDKNADDNKPTCNYSYDKKNACIYDFLELKTTKSIDKYYVIKNNNSRIRTTTYLNDDNKQETESMMIQSLQKDNLNIWNVYTGNNYDYFDDDEEDDDDDYNNNNNNNNGDTGTKTNIATNNTHGLTTSKSQHIYNNLVDKNDSIDYRISINIEYTKPISKLYLSKNTPVHERLKERTTFINTYLGLQVDMTKIKTKNNELYEVEIEIPSKTIFKAMSNLRNKKDSNYLHFICSNLVNNIRGICSQLNVFKKSKHMLKNTMITKLNNNSNNQNNLSLLPNHPNDDTISSKEKEKFKKYIHSVLPIVGDY
# B8: enzyme (UniProt A0A7S7NT01); chain APLPVRGIHLGAPSPEEMPLAIRFIEEALPKEGVNVLILEFNYRYQYASHPEVVDANALSADQVRQLAASCRKANVRLIPLINLLGHQSWAKTTFGLLRAHPEFDETPKMYPENKDIYCRSYCPRHPKVHGVLFDLIDELMAVTGADAFHAGMDEVFLLGEKECKRCRGRNKAELFANEVKAIHAHLAKQKKELWIWGDRLIDGKVTGIGKWEASVNDTAAALALIPKDVVINDWHYEAPHATGTYFALSGFRVVSSPWKKTPVALGQLAQIRDARAHSTKPVGDRMLGMLQTTWVGFGPFVRAYFGEGEPPKQGVPEAVECFRALFAELRTMN
# B9: enzyme Y27L (Thermoplasma volcanium, UniProt Q978S7); chain MAFHGLVKYSDITVEGLPKIQYHGFIGNNRTAMLVAMNGYIDWGCLPNFNSNAVFSSILDKNKGGYFAIFPSDTTDVYVDQYYKEMTNVLVTEFVKNGKIILRLTDFMPDSEYGKISFPEVHRFVESFSEPIDITIDFKPTFNYGQDKPIIEKDQHGFIFTTDKESIGISSEFPLRKNSDRIFGNVKMEPRSSSWIIALYGIHHLFRTTDYKSYLRLQETTDYWRKWASSSSYAGAYHSMVMRSALALKVLFYEPTGLMVAAPTASLPEAIGGERNWDYRFTWIRDTAYVIEALSSIGYKYEATEFLYDMMDMITRDNRIRTIYSIDDSNDLEERIIDYEGYRGSRPVRIGNKAVDQLQIDQYGSIVRAIHSMAKAGGIVNSYLWDFVEQVMAKIEYLWKYPDSSIWEFRTEPKQYVYSKVMSWAAFDSAISMAKDLGLSAPIKQWKSIQDEIKKEVLEKGFDTDTNSFVQYYGSKNIDAALLRLPILGFIPANDEKFLGTLSRIEKELMVDGYLFKRYREDDGLKGDEGSFLMLTFWYIEDLILMKRLKKAREVLESVLEKANHLGLYSEEIDEKSGDFLGNFPQALSHLGVIRVAPKLEEALLKRTSKINS
# B10: enzyme Y136L/Y168I (Bradyrhizobium diazoefficiens, UniProt Q45222); chain MIQTERAVQQVLEWGRSLTGFADEHAVEAVRGGQYILQRIHPSLRGTSARTGRDPQDETLIVTFYRELALLFWLDDCNDLGLISPEQLAAVEQALGQGVPCALPGFEGCAVLRASLATLAYDRRDYAQLLDDTRCLSAALRAGHAQAVAAERWSYAEYLHNGIDSIAIANVFCCLSLLWGLDMATLRARPAFRQVLRLISAIGRLQNDLHGCDKDRSAGEADNAVILLLQRYPAMPVVEFLNDELAGHTRMLHRVMAEERFPAPWGPLIEAMAAIRVQYYRTSTSRYRSDAVRGGQRAPA
# B11: enzyme D25A (Nitrosopumilus maritimus, UniProt A9A5X4); chain MDSQKFDSIIFDCDGVLVDITQSYAKTIDKTCRYVLKEFAKIDSITIDHKIIDGFKSSGGFNDEVDLVYAAILSLYTANKLNKKPSEFIYDVISNTDKTGIRSVQSYLESIYDVSEFLSKLGSLGDRHNNPVYSIFDQFFFGPELYGKLFDKQSKFSEEGMISNDKVILSVSLLETLQKEFGKKIAVVTGRGIESIRYSLKDMMDYFDTKNSAFLEDEPRELAKPNPATLIRAIQSMESKNCLYVGDSMEDYMMAKDAAQAGHSTTFCAIVGTSTNPEDRRKLFADSGVEMILESINDIPKVLNLV
# UniProt Q9C969, sequence (whole entry, looked up): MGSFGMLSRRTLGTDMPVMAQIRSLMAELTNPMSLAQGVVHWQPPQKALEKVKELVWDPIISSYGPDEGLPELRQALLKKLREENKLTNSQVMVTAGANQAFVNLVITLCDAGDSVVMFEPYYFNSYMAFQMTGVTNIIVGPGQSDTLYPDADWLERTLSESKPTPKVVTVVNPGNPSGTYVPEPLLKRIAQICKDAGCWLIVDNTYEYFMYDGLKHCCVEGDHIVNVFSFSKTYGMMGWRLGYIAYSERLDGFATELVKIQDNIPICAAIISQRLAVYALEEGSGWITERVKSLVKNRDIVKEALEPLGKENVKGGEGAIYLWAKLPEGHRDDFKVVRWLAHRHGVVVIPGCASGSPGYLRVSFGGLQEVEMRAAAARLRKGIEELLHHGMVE
Substance,substrate,pH,temperature,notes,together with,kcat/Km
"enzyme Y26F (Homo sapiens, UniProt Q08623)",O=c1[nH]cc([C@@H]2O[C@H](COP(=O)(O)O)[C@@H](O)[C@H]2O)c(=O)[nH]1,pH 7,25 °C,,,350000 M⁻¹ s⁻¹
enzyme (UniProt A0A063Y6V3),NC(=O)C1=CN([C@@H]2O[C@H](COP(=O)(O)OP(=O)(O)OC[C@H]3O[C@@H](n4cnc5c(N)ncnc54)[C@H](OP(=O)(O)O)[C@@H]3O)[C@@H](O)[C@H]2O)C=CC1,pH 7,30 °C,cofactor varied,,10800 M⁻¹ s⁻¹
B1 (SCO6712 V290N),CCn1c(=NN=c2sc3cc(S(=O)(=O)O)ccc3n2CC)sc2cc(S(=O)(=O)O)ccc21,pH 7,37 °C,NaCl 150 mM,O2 cosubstrate,1460 ± 80 M⁻¹ s⁻¹
B2 (enzyme H459A),Nc1ncnc2c1ncn2[C@@H]1O[C@H](COP(=O)(O)OP(=O)(O)OP(=O)(O)O)[C@@H](O)[C@H]1O,pH 8.5,25 °C,"apparent, anoxic",L-Thr 10 mM,312 ± 78 M⁻¹ s⁻¹
"enzyme (Chlamydomonas reinhardtii, UniProt A0A2K3D977)",O=C(CO)COP(=O)(O)O,pH 7.5,,,NADH 500 µM,300000 ± 60000 M⁻¹ s⁻¹
B3 (enzyme),N[C@@H](Cc1ccc(O)c(I)c1)C(=O)O,pH 7.4,25 °C,,dithionite,20000 ± 2000 M⁻¹ s⁻¹
B4 (acsA),CCCC(=O)O,pH 7,,,,1170 ± 333 M⁻¹ s⁻¹
B5 (enzyme S252E),NC(=O)C1=CN([C@@H]2O[C@H](COP(=O)(O)OP(=O)(O)OC[C@H]3O[C@@H](n4cnc5c(N)ncnc54)[C@H](OP(=O)(O)O)[C@@H]3O)[C@@H](O)[C@H]2O)C=CC1,pH 7,30 °C,apparent,,160000 ± 20000 M⁻¹ s⁻¹
B6 (SABP2),CC(=O)Oc1ccc([N+](=O)[O-])cc1,pH 7.2,22 °C,,,1020 M⁻¹ s⁻¹
"groEL (Pseudomonas aeruginosa, UniProt P30718)",Nc1ncnc2c1ncn2[C@@H]1O[C@H](COP(=O)(O)OP(=O)(O)OP(=O)(O)O)[C@@H](O)[C@H]1O,pH 7.4,24 °C,"apparent, per site",,892 M⁻¹ s⁻¹
"enzyme (Arabidopsis thaliana, UniProt Q9C969)",O=C(O)C(=O)Cc1ccccc1,,,,,43700 M⁻¹ s⁻¹ and 25300 M⁻¹ s⁻¹
B7 (enzyme),Nc1ncnc2c1ncn2[C@@H]1O[C@H](COP(=O)(O)OP(=O)(O)OP(=O)(O)O)[C@@H](O)[C@H]1O,,,,Mn2+,36000 ± 3000 M⁻¹ s⁻¹
B8 (enzyme),CC(=O)N[C@H]1[C@H](Oc2ccc([N+](=O)[O-])cc2)O[C@H](CO)[C@@H](O[C@@H]2O[C@H](CO)[C@H](O)[C@H](O)[C@H]2O)[C@@H]1O,pH 6,45 °C,,,13000 M⁻¹ s⁻¹
B9 (enzyme Y27L),OC[C@H]1O[C@H](O[C@H]2O[C@H](CO)[C@@H](O)[C@H](O)[C@H]2O)[C@H](O)[C@@H](O)[C@@H]1O,pH 3.7,30 °C,,,60 M⁻¹ s⁻¹
enzyme (UniProt F0RRL2),O=P(O)(O)O[C@H]1O[C@H](CO)[C@@H](O)[C@H](O)[C@H]1O,pH 5.5,37 °C,apparent,,700 M⁻¹ s⁻¹
"enzyme (Caenorhabditis elegans, UniProt Q86D21)",C[C@@H](O)[C@H](N)C(=O)O,pH 7.5,37 °C,,ATP,730 M⁻¹ s⁻¹
B10 (enzyme Y136L/Y168I),C=C1CC[C@@H]2C(C)(C)CCC[C@@]2(C)[C@@H]1CC/C(C)=C/COP(=O)(O)OP(=O)(O)O,,,,,31000 M⁻¹ s⁻¹
spt R378K (Sphingomonas paucimobilis),CCCCCCCCCCCC(=O)SCCNC(=O)CCNC(=O)[C@H](O)C(C)(C)COP(=O)(O)OP(=O)(O)OC[C@H]1O[C@@H](n2cnc3c(N)ncnc32)[C@H](O)[C@@H]1OP(=O)(O)O,,,,PLP,625 M⁻¹ s⁻¹
B11 (enzyme D25A),N[C@H](COP(=O)(O)O)Cc1c[nH]cn1,pH 7.8,25 °C,,,49 ± 3 M⁻¹ s⁻¹

# Repeated from above:
Substance,substrate,pH,temperature,notes,together with,kcat/Km
enzyme (UniProt A0A063Y6V3),NC(=O)C1=CN([C@@H]2O[C@H](COP(=O)(O)OP(=O)(O)OC[C@H]3O[C@@H](n4cnc5c(N)ncnc54)[C@H](OP(=O)(O)O)[C@@H]3O)[C@@H](O)[C@H]2O)C=CC1,pH 7,30 °C,cofactor varied,,10800 M⁻¹ s⁻¹
B4 (acsA),CCCC(=O)O,pH 7,,,,1170 ± 333 M⁻¹ s⁻¹
